Measurements collected from several papers.
Each line is one published result; not all experiments were run side by side. ± gives the spread as reported.
SMARCA4: SWI/SNF-related matrix-associated actin-dependent regulator of chromatin subfamily A member 4 (SMARCA4, Homo sapiens, UniProt P51532)
BCL2L2: Bcl-2-like protein 2 (BCL2L2, Homo sapiens, UniProt Q92843)
Chain of UniProt Q92843 (whole entry, looked up): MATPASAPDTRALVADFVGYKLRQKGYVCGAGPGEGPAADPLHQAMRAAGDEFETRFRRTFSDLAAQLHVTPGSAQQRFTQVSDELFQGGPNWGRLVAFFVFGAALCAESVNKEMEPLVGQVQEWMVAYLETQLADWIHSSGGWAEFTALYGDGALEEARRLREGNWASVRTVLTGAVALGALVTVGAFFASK
CDK9 with cyclin K: Cyclin-dependent kinase 9, with cyclin K (CDK9, Homo sapiens, UniProt P50750)
Chain of UniProt P50750 (whole entry, looked up): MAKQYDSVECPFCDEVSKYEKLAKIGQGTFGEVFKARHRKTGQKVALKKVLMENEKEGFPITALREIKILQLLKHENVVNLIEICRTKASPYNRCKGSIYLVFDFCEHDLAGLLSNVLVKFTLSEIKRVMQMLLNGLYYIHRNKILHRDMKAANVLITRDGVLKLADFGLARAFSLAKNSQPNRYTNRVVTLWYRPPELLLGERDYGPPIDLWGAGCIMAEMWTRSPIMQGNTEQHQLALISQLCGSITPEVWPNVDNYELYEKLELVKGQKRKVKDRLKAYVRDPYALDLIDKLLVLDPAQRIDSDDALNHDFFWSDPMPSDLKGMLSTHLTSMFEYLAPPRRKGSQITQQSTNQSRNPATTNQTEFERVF
Chain of UniProt O75417 (whole entry, unmodified, looked up): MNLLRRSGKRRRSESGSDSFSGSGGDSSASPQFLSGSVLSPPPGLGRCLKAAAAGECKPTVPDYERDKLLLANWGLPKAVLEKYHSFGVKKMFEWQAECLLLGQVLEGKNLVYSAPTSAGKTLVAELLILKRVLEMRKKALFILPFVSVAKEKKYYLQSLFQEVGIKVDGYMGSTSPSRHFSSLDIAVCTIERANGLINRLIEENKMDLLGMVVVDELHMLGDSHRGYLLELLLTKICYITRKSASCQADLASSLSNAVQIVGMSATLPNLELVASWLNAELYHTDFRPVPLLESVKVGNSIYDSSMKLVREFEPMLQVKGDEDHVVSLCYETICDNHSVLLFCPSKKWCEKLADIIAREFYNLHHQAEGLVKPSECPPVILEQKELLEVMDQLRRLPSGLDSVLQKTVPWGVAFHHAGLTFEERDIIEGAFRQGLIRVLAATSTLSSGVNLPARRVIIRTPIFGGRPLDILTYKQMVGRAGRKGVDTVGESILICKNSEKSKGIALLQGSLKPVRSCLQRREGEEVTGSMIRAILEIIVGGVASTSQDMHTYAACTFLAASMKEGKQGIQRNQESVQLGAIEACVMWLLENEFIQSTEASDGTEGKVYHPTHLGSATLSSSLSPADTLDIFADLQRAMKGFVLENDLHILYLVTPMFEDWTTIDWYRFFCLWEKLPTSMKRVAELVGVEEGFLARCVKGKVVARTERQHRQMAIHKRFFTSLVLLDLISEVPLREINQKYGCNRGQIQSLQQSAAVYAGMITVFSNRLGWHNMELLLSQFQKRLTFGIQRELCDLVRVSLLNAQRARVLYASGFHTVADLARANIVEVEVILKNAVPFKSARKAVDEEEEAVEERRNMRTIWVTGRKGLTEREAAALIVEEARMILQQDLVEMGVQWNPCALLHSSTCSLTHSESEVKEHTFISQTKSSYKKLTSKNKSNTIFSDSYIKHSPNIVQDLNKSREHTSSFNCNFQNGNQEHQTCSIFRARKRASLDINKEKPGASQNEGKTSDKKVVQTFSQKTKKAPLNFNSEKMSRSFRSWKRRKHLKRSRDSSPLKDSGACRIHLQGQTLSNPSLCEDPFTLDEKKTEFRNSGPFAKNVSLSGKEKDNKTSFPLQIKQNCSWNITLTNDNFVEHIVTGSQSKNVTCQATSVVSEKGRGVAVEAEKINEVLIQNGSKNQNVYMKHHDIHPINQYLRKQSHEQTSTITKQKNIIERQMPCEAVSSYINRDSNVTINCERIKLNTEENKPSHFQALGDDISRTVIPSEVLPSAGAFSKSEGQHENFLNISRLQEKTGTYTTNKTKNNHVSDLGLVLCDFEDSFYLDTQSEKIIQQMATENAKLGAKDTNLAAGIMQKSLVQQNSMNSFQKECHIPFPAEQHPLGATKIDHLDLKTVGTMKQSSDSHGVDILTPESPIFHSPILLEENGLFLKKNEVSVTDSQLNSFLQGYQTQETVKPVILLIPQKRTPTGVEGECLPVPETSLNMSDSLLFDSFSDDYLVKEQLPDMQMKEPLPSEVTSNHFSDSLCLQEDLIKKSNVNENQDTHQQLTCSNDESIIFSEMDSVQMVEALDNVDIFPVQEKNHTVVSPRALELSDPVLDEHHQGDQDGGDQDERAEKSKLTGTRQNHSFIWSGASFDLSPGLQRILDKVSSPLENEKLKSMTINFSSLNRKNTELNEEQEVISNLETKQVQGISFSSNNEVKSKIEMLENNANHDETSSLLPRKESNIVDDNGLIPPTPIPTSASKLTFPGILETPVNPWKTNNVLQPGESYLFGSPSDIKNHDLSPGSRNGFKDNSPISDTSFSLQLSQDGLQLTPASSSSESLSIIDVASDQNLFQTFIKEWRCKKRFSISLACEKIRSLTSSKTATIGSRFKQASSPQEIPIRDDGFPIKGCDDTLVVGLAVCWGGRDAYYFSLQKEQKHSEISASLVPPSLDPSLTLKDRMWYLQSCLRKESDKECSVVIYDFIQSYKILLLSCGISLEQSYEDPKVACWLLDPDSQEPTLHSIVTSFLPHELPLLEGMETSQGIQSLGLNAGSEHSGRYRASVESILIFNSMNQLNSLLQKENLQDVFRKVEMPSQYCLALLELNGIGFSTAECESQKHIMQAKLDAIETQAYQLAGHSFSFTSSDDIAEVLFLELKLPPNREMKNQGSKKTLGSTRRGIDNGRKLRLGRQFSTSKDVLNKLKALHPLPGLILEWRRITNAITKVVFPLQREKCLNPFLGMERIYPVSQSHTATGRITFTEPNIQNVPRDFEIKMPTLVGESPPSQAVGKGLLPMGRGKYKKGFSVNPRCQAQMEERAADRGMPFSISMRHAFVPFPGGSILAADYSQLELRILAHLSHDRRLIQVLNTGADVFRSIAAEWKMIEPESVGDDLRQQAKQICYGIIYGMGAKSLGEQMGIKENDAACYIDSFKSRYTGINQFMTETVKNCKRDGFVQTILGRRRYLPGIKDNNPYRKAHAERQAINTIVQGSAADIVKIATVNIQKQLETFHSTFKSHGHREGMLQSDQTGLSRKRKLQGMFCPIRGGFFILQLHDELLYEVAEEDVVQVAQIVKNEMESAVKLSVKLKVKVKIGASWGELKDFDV
Chain of UniProt Q8NHB7 (whole entry, unmodified, looked up): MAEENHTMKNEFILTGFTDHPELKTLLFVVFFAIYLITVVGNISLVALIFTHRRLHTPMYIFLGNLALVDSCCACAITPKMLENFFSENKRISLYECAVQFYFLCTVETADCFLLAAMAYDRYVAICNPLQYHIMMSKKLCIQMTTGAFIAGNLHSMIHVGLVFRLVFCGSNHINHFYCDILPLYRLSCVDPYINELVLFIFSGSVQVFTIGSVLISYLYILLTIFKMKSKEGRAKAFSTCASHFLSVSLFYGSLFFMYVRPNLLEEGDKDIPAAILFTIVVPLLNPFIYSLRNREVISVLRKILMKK
Chain of UniProt Q70EK9 (whole entry, looked up): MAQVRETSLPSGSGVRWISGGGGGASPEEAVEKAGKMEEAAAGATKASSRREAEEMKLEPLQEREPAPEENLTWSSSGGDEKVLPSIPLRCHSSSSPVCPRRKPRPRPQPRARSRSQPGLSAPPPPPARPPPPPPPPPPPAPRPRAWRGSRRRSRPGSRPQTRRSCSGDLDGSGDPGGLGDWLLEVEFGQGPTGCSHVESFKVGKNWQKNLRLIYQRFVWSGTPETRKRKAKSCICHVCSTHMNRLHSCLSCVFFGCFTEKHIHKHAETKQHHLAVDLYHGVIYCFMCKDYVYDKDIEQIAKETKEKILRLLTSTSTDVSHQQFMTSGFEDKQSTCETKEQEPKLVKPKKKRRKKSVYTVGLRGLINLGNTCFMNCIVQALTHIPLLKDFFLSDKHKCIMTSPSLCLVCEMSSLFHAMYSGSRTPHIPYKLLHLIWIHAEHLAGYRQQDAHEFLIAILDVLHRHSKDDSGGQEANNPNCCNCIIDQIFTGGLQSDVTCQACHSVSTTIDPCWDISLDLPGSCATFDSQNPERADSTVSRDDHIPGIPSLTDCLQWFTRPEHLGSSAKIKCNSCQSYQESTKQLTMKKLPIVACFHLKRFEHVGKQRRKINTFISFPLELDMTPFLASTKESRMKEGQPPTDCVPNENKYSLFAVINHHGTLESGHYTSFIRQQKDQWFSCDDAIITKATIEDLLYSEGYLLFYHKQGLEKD
Chain of UniProt P35372 (whole entry, looked up): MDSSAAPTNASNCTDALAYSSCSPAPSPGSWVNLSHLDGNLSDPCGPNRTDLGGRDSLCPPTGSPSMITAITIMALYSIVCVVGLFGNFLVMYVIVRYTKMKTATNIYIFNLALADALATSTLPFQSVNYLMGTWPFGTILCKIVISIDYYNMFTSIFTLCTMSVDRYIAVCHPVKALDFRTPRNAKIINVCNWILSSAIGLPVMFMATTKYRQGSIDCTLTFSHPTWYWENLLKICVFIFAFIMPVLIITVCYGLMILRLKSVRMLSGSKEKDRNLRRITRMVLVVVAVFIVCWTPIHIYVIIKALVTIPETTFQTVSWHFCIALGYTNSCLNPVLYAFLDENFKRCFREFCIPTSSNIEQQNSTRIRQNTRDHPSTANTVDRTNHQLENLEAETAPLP
Chain of UniProt O43613 (whole entry, looked up): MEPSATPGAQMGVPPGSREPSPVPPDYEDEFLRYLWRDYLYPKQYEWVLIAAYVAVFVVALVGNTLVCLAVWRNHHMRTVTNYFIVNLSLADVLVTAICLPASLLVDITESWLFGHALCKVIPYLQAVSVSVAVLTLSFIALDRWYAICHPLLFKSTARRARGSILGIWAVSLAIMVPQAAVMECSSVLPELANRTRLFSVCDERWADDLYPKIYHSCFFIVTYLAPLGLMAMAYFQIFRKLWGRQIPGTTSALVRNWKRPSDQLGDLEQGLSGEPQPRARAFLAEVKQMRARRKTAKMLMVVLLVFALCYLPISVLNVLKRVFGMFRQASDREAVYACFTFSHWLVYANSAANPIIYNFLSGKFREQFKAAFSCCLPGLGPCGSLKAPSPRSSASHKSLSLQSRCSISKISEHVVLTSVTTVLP

| Substance | target or system | assay | test system | setting | endpoint | result |
| --- | --- | --- | --- | --- | --- | --- |
| CC[C@@]1(O)C(=O)OCc2c1cc1n(c2=O)Cc2cc3cc(O)ccc3nc2-1 | Ubiquitin carboxyl-terminal hydrolase 51 (USP51, Homo sapiens, UniProt Q70EK9) | enzyme activity, inhibitor | – | 5 µM | inhibition | 15% |
| Cc1ccc(-c2cc(C(F)(F)F)nn2-c2ccc(S(N)(=O)=O)cc2)cc1 | RAW264.7 macrophages | IL-6 production | – | with: LPS 1 µg/mL | IC50 | 4360 ± 1120 nM |
| Cc1cc2c(cc1N1C(=O)c3cccc4c(Cl)ccc(c34)C1=O)n(C)c(=O)n2C | SMARCA4 | – | – | 10 µM | delta Tm | 0 °C |
| CC[C@H](C)[C@H](NC(=O)[C@H](CCC(=O)O)NC(=O)[C@H](CC(=O)O)NC(=O)CNC(=O)[C@H](CC(C)C)NC(=O)[C@H](CCCNC(=N)N)NC(=O)[C@H](CCC(N)=O)NC(=O)[C@H](CC(C)C)NC(=O)[C@H](CO)NC(=O)[C@H](CCC(N)=O)NC(=O)[C@@H](NC(=O)[C@H](CC(C)C)NC(=O)[C@H](Cc1c[nH]c2ccccc12)NC(=O)[C@@H](NC(=O)[C@H](CCC(=O)O)NC(=O)[C@@H]1CCCN1C(=O)[C@H](CCCNC(=N)N)NC(C)=O)[C@@H](C)CC)[C@@H](C)O)C(=O)N[C@@H](CC(N)=O)C(=O)N[C@@H](C)C(=O)N[C@@H](Cc1ccc(O)cc1)C(=O)N[C@@H](Cc1ccc(O)cc1)C(=O)N[C@@H](C)C(=O)N[C@@H](CCCNC(=N)N)C(N)=O | BCL2L2 | fluorescence polarization competition | – | 2 h, 25 °C, with: 25 nM fluorescein-Bim | Ki | 230 nM |
| C#Cc1cccc(Nc2ncnc3cc(OCCOC)c(OCCOC)cc23)c1 | PC-3 | MTT | – | 6.25 µg/mL, RPMI medium with 2% serum | viability | 10.7% |
| CC[C@@H]1C(=O)N(C)c2cnc(Nc3ccc(C(=O)NC4CCN(C)CC4)cc3OC)nc2N1C1CCCC1 | Peregrin, isoform A (BRPF1, Homo sapiens, UniProt P55201) | thermal stabilisation, thermal shift | – | 10 µM | ΔTm | 0.14 ± 0.45 °C |
| CC[C@@H](C(=O)Nc1ccc(C(N)=O)c(F)c1)n1cc(OC)c(-c2cc(Cl)ccc2-n2cc(C(F)(F)F)nn2)cc1=O | – | thrombus weight | New Zealand White rabbit, plasma | intravenous, FeCl2 carotid artery injury | EC50 | 380 µg/L |
| CNc1ncc2c(/C=C/C(=O)N3CCC(OC)CC3)nn(Cc3cccc(C(F)(F)F)c3)c2n1 | CDK9 with cyclin K | – | – | 1 µM | remaining activity | 86% |
| CC[C@H](C)[C@H](NC(=O)[C@H](CCC(=O)O)NC(=O)[C@H](CC(=O)O)NC(=O)CNC(=O)[C@H](CC(C)C)NC(=O)[C@H](CCCNC(=N)N)NC(=O)[C@H](CCCNC(=N)N)NC(=O)[C@H](CC(C)C)NC(=O)CNC(=O)[C@H](CCC(N)=O)NC(=O)[C@@H](NC(=O)[C@H](CCSC)NC(=O)[C@H](Cc1c[nH]c2ccccc12)NC(=O)[C@@H](NC(=O)[C@H](CCC(=O)O)NC(=O)[C@@H]1CCCN1C(=O)[C@H](CCCNC(=N)N)NC(C)=O)[C@@H](C)CC)[C@@H](C)O)C(=O)N[C@@H](CC(N)=O)C(=O)N[C@@H](C)C(=O)N[C@@H](Cc1ccc(O)cc1)C(=O)N[C@@H](Cc1ccc(O)cc1)C(=O)N[C@@H](C)C(=O)N[C@@H](CCCNC(=N)N)C(N)=O | BCL2L2 | fluorescence polarization competition | – | 2 h, 25 °C, with: 25 nM fluorescein-Bim | Ki | 990 nM |
| NS(=O)(=O)c1ccc(Nc2nc(-c3ccc(F)cc3)c3ccccc3n2)cc1 | SMARCA4 | enzyme activity, inhibitor | – | 1 µM | remaining activity | 89% |
| orexin-A | Orexin/Hypocretin receptor type 1 (HCRTR1, Homo sapiens, UniProt O43613) | calcium signalling, agonist, FLIPR Tetra | CHO expressing HCRTR1 | – | EC75 | 0.1 nM |
| COc1nccnc1CC(C)C | OR5K1 (Homo sapiens, UniProt Q8NHB7, A2T/I280V/T15M/V39I/Y193C) | agonist | – | – | EC50 | 378 ± 31.8 µM |
| N#Cc1ccc(-c2csc(CNC(=O)C34CC(CN(C(=O)COCCF)C3)C4)n2)cc1 | – | – | Sprague Dawley rats male, plasma | intravenous, 1 mg/kg | unbound hepatic CLint | 56 mL/min/kg |
| Cc1ncsc1-c1ccc(CNC(=O)[C@@H]2C[C@@H](O)CN2C(=O)[C@@H](NC(=O)C2(F)CC2)C(C)(C)C)c(OCCOCCOCCN2CCN(c3cc(-c4ccccc4O)nnc3N)CC2)c1 | SMARCA4 | AlphaLISA competition | HEK293 cell lysate | without VCB | IC50 | 1300 ± 100 nM |
| Cc1cc(C)c(/C=C2\C(=O)Nc3ccccc32)[nH]1 | DNA polymerase theta, ATPase domain (POLQ, Homo sapiens, UniProt O75417) | enzyme activity | – | 77 µM | remaining activity | 104% |
| Cc1c(O)cc2oc3c(c(=O)c2c1O)-c1ccccc1OC3O (stereo not drawn) | CDK9 with cyclin K | – | – | 10 µM | inhibition | 20 to 30% |
| cyclic GMP-AMP | Bromodomain-containing protein 4, BD1 (BRD4, Homo sapiens, UniProt O60885) | binding, thermal shift | – | 200 µM, BD1 domain | ΔTm | -0.45 ± 0.58 °C |
| Cc1c(C(=O)NN2CCCCC2)nn(-c2ccc(Cl)cc2Cl)c1-c1ccc(Cl)cc1 | Mu-type opioid receptor (OPRM1, Homo sapiens, UniProt P35372) | – | CHO cells | 10 µM, with: forskolin | cAMP level | no effect |

For quick reference, copied from above:
| Substance | target or system | assay | test system | setting | endpoint | result |
| --- | --- | --- | --- | --- | --- | --- |
| CC[C@H](C)[C@H](NC(=O)[C@H](CCC(=O)O)NC(=O)[C@H](CC(=O)O)NC(=O)CNC(=O)[C@H](CC(C)C)NC(=O)[C@H](CCCNC(=N)N)NC(=O)[C@H](CCC(N)=O)NC(=O)[C@H](CC(C)C)NC(=O)[C@H](CO)NC(=O)[C@H](CCC(N)=O)NC(=O)[C@@H](NC(=O)[C@H](CC(C)C)NC(=O)[C@H](Cc1c[nH]c2ccccc12)NC(=O)[C@@H](NC(=O)[C@H](CCC(=O)O)NC(=O)[C@@H]1CCCN1C(=O)[C@H](CCCNC(=N)N)NC(C)=O)[C@@H](C)CC)[C@@H](C)O)C(=O)N[C@@H](CC(N)=O)C(=O)N[C@@H](C)C(=O)N[C@@H](Cc1ccc(O)cc1)C(=O)N[C@@H](Cc1ccc(O)cc1)C(=O)N[C@@H](C)C(=O)N[C@@H](CCCNC(=N)N)C(N)=O | BCL2L2 | fluorescence polarization competition | – | 2 h, 25 °C, with: 25 nM fluorescein-Bim | Ki | 230 nM |
| C#Cc1cccc(Nc2ncnc3cc(OCCOC)c(OCCOC)cc23)c1 | PC-3 | MTT | – | 6.25 µg/mL, RPMI medium with 2% serum | viability | 10.7% |
